Experimental data pooled from the literature.
Every numbered part comes from another study and shows a few of its results, in no order. Values joined by “and” are separate records of one study, mostly repeats; a detail may differ.
Sequence of UniProt O75716 (whole entry, looked up): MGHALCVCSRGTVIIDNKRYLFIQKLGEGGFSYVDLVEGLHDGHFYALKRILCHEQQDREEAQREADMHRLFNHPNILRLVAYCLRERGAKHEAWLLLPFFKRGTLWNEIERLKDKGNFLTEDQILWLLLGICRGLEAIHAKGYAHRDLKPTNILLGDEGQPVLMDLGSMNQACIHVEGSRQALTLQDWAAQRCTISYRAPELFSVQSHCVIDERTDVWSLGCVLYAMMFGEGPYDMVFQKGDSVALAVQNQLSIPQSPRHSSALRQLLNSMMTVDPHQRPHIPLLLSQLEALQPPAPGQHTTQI
Sequence of UniProt Q02750 (whole entry, looked up): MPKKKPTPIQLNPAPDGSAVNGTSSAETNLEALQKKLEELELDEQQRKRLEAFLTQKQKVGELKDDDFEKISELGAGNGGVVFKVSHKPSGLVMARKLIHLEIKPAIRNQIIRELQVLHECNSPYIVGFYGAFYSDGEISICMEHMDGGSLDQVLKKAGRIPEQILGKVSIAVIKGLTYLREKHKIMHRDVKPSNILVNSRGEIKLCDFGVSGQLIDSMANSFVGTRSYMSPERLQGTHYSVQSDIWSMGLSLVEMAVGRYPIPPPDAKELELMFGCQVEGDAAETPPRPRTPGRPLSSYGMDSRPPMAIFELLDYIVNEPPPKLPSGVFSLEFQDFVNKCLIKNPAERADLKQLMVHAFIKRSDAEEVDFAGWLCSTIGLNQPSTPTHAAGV
Sequence of UniProt Q12851 (whole entry, looked up): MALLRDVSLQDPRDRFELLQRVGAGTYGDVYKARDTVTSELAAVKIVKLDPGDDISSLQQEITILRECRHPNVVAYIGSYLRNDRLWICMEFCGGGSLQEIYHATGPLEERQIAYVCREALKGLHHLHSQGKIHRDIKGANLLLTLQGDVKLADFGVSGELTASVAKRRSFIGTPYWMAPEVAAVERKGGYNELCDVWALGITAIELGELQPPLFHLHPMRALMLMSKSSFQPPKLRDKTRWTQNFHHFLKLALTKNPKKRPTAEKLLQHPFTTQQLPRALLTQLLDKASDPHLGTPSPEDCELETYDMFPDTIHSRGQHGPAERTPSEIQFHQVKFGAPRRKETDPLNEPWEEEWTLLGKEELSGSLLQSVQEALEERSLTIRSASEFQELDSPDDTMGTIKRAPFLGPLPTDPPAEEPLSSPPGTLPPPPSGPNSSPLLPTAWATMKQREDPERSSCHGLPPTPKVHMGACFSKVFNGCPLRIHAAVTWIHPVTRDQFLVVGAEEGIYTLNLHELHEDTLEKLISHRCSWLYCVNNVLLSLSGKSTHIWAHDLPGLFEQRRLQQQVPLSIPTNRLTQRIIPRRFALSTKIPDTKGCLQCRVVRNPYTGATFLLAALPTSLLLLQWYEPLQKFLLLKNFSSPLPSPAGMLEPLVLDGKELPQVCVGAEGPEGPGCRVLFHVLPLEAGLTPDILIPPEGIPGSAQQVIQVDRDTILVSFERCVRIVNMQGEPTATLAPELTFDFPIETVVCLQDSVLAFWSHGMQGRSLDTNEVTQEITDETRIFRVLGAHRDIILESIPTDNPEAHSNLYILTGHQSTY
Sequence of UniProt O15530 (whole entry, looked up): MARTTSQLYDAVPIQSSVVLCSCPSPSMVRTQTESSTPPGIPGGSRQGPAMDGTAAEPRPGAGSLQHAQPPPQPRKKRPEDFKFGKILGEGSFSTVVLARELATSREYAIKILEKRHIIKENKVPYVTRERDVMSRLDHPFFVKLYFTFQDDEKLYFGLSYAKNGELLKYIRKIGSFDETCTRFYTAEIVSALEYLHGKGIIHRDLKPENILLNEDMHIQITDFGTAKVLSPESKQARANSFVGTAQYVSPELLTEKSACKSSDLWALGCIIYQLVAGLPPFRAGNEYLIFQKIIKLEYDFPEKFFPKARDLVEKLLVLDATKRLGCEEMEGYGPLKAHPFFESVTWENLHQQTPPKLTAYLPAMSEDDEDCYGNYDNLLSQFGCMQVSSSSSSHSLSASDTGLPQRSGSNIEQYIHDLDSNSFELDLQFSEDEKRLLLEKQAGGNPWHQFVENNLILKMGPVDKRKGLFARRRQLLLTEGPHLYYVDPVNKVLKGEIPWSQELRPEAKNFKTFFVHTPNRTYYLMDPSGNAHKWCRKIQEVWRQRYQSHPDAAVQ
Sequence of UniProt Q96GD4 (whole entry, looked up): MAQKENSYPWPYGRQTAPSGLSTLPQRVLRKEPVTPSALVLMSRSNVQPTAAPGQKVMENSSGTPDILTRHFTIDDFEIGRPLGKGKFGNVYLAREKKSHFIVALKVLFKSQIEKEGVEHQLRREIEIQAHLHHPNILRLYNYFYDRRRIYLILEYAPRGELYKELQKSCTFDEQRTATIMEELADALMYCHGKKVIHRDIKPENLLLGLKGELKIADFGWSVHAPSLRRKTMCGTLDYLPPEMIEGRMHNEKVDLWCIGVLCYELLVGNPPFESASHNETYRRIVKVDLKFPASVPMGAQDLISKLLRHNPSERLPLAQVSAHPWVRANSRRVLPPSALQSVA
Sequence of UniProt P45985 (whole entry, looked up): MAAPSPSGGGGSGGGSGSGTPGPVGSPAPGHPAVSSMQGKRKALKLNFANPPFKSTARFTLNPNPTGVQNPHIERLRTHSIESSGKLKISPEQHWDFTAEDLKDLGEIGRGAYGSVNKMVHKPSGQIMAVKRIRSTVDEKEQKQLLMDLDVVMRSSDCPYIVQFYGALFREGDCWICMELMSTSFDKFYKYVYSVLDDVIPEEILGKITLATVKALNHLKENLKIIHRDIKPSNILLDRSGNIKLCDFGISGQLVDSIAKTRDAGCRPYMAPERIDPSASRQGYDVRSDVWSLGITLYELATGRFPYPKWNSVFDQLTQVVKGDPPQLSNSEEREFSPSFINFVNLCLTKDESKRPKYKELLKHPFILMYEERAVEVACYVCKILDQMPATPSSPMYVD
Sequence of UniProt Q00537 (whole entry, looked up): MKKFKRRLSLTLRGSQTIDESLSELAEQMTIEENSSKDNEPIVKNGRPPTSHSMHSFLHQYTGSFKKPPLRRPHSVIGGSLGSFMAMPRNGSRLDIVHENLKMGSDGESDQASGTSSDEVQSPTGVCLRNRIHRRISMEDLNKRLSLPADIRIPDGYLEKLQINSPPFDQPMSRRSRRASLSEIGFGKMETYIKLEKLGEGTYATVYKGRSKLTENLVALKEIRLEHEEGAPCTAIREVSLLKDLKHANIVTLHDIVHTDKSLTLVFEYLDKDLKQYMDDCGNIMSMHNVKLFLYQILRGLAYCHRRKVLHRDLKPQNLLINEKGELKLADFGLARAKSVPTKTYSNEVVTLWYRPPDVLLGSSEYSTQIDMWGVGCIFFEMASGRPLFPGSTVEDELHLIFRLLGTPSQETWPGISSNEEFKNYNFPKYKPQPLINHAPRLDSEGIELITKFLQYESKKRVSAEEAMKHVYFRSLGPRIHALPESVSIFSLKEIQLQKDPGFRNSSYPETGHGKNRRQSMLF
Sequence of UniProt P49759 (whole entry, looked up): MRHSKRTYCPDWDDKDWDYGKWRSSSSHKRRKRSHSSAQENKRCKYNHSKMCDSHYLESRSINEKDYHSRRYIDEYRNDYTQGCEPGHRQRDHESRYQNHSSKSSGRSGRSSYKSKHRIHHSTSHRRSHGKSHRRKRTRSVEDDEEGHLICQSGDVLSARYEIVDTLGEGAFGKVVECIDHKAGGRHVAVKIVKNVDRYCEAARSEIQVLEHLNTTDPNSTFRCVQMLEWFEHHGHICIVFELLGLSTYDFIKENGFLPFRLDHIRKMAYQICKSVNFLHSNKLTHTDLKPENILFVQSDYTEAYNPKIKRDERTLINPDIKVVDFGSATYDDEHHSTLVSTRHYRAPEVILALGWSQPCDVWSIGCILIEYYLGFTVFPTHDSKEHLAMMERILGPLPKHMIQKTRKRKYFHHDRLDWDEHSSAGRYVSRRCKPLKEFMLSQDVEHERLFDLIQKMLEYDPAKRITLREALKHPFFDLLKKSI
Sequence of UniProt Q13976 (whole entry, looked up): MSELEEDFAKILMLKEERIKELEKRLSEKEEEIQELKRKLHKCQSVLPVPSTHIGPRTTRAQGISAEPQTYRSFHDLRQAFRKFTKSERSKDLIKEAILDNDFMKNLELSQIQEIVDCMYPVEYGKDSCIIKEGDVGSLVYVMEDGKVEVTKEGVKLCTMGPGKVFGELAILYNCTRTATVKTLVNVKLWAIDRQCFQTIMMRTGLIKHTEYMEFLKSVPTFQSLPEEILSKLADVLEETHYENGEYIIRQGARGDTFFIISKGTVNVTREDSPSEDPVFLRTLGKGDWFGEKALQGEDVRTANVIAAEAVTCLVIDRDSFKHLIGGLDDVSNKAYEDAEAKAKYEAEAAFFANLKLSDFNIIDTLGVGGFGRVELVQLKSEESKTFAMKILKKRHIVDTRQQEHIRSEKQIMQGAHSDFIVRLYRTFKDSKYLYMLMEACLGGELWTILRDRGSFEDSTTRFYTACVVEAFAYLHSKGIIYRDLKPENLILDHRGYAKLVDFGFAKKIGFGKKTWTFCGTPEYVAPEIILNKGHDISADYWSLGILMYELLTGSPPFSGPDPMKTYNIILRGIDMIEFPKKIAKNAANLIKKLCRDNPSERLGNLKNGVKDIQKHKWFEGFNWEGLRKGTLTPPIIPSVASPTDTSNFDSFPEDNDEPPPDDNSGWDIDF

Series 1
Structure (SMILES): O=C(Nc1cnn(-c2csc(C(=O)NC3COC3)c2)c1)Nc1c(F)cccc1Cl
Tested at: 5 µM
| target | assay | scale | remaining activity |
| --- | --- | --- | --- |
| CLK1 (Homo sapiens, UniProt P49759) | enzyme activity | relative to: untreated control | 74.2% |
| WNK3 (Homo sapiens, UniProt Q9BYP7) | enzyme activity | relative to: untreated control | 87.3% |
| PRKG1 (Homo sapiens, UniProt Q13976) | enzyme activity | relative to: untreated control | 93.1% |
| GRK6 (Homo sapiens, UniProt P43250) | enzyme activity | relative to: untreated control | 98% |
| IKBKB (Homo sapiens, UniProt O14920) | enzyme activity | relative to: untreated control | 94.1% |
| RPS6KA2 (Homo sapiens, UniProt Q15349) | kinase activity, kinase panel profiling |  | 90.1% |
| Aurora kinase B (AURKB, Homo sapiens, UniProt Q96GD4) | enzyme activity | relative to: untreated control | 68.6% |
| PAK1 (Homo sapiens, UniProt Q13153) | enzyme activity | relative to: untreated control | 76.1% |
| PDPK1 (Homo sapiens, UniProt O15530) | enzyme activity | relative to: untreated control | 99.1% |

Series 2
Cell line: A-375
Tested at: 100 µM
Time: 18 h
| SMILES | viability [%] |
| --- | --- |
| CNCc1cc(-c2ccccc2F)n(S(=O)(=O)c2cccnc2)c1 | 97.5 |
| CC1COc2c(N3CCN(C)CC3)c(F)cc3c(=O)c(C(=O)O)cn1c23 (centres unmarked) | 94.3 |
| Cc1cn([C@H]2C=C[C@@H](CO)O2)c(=O)[nH]c1=O | 103 |
| CCN(CC)CCCC(C)Nc1ccnc2cc(Cl)ccc12 (centres unmarked) | 92.7 |
| NC12CC3CC(CC(C3)C1)C2 | 104 |
| CC[C@H](C)C[C@H](C)CCCCCCCCC(=O)N[C@H]1C[C@@H](O)[C@@H](NCCN)NC(=O)[C@@H]2[C@@H](O)CCN2C(=O)[C@H]([C@H](O)CCN)NC(=O)[C@H]([C@H](O)[C@@H](O)c2ccc(O)cc2)NC(=O)[C@@H]2C[C@@H](O)CN2C(=O)[C@H]([C@@H](C)O)NC1=O | 15.8 |
| CN[C@@H]1[C@@H](O)[C@@H](O[C@@H]2[C@@H](O)[C@H](O[C@H]3OC(CN)=CC[C@H]3N)[C@@H](N)C[C@H]2N)OC[C@]1(C)O | 94.6 |
| Cc1nnc(C(C)C)n1[C@@H]1C[C@H]2CC[C@@H](C1)N2CC[C@H](NC(=O)C1CCC(F)(F)CC1)c1ccccc1 | 105 |
| CC(=O)O[C@H]1CC[C@@]2(C)C(=CC[C@@H]3[C@@H]2CC[C@]2(C)C(c4cccnc4)=CC[C@@H]32)C1 | 47.6 |
| CCCCCCCCCC[C@H](C(=O)O)[C@]1(C(=O)O)CCC(=O)O1 | 94.4 |
| CCOC(=O)c1ncn2c1CN(C)C(=O)c1cc(F)ccc1-2 | 93.7 |

Series 3
SMILES: Cn1nc(C(F)(F)F)cc1-c1cnc(N2CCc3cc(S(=O)(=O)Nc4c(F)cc(Cl)cc4F)cc(N4CCCC4=O)c32)nc1
Read-out: cell-free assay
Method: competition with immobilised ligand
Tested at: 1 µM
| target | remaining binding |
| --- | --- |
| EGFR (Homo sapiens, UniProt P00533, del747-750/T751S) | 100% |
| Ribosomal protein S6 kinase alpha-4, N-terminal kinase domain (RPS6KA4, Homo sapiens, UniProt O75676) | 82% |
| MAP3K6 (Homo sapiens, UniProt O95382) | 67% |
| CDK17 (Homo sapiens, UniProt Q00537) | 100% |
| Non-receptor tyrosine-protein kinase TYK2, JH1 (TYK2, Homo sapiens, UniProt P29597) | 78% |
| EGFR (Homo sapiens, UniProt P00533, del746-750) | 100% |
| TTK (Homo sapiens, UniProt P33981) | 97% |
| MAP2K1 (Homo sapiens, UniProt Q02750) | 95% |
| MAP2K4 (Homo sapiens, UniProt P45985) | 88% |
| BMP2K (Homo sapiens, UniProt Q9NSY1) | 92% |
| BMPR1B (Homo sapiens, UniProt O00238) | 83% |
| MAP3K19 (Homo sapiens, UniProt Q56UN5) | 82% |
| MET (Homo sapiens, UniProt P08581, Y1235D) | 94% |
| STK16 (Homo sapiens, UniProt O75716) | 92% |
| MAP4K2 (Homo sapiens, UniProt Q12851) | 95% |
| PLK1 (Homo sapiens, UniProt P53350) | 93% |
| MAP3K4 (Homo sapiens, UniProt Q9Y6R4) | 100% |
| CDK13 (Homo sapiens, UniProt Q14004) | 79% |
| FLT3 (Homo sapiens, UniProt P36888, D835H) | 100% |
| MELK (Homo sapiens, UniProt Q14680) | 100% |
| SRPK1 (Homo sapiens, UniProt Q96SB4) | 77% |
| Ribosomal protein S6 kinase alpha-6, C-terminal kinase domain (RPS6KA6, Homo sapiens, UniProt Q9UK32) | 84% |

Series 4
Target: Calcium/calmodulin-dependent protein kinase type II subunit alpha (CAMK2A, Homo sapiens, UniProt Q9UQM7)
Sequence of UniProt Q9UQM7 (whole entry, looked up): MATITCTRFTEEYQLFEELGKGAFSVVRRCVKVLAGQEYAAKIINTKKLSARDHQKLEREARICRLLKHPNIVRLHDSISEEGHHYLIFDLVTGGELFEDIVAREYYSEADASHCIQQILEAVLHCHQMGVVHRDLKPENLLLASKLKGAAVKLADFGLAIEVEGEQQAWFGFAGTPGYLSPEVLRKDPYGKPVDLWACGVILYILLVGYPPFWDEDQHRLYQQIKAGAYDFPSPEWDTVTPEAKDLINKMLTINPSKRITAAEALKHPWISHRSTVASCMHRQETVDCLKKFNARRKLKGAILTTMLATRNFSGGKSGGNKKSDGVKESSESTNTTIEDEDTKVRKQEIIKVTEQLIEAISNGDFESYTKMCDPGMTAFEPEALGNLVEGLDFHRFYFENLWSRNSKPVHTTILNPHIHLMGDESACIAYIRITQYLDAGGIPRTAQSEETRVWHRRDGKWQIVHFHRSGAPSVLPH
Read-out: enzyme activity
Action: inhibitor
Tested at: 10 µM
| SMILES | inhibition [%] |
| --- | --- |
| Cn1c(Cn2ccc(C(F)(F)F)c(Oc3cc(Cl)cc(C#N)c3)c2=O)n[nH]c1=O | -6 |
| COc1ccc(CN(CCN(C)C)c2ccccn2)cc1 | -1 |
| CCOc1cc2ncc(C#N)c(Nc3ccc(OCc4ccccn4)c(Cl)c3)c2cc1NC(=O)/C=C/CN(C)C | -4 |
| Cc1nc2ccccc2c(=O)[nH]1 | -2 |
| NC(=O)CC[C@@H](N)C(=O)O | -5 |
| COc1cc([C@@H]2Oc3c(O)cc([C@H]4Oc5cc(O)cc(O)c5C(=O)[C@@H]4O)cc3[C@H]2CO)ccc1O | -18 |
| C/C=C1/[C@H](O[C@@H]2O[C@H](CO)[C@@H](O)[C@H](O)[C@H]2O)OC=C(C(=O)OC)[C@H]1CC(=O)OCCc1ccc(O)c(O)c1 | 25 |

Series 5
Compound: CC(C)(C)c1cnc(CSc2cnc(NC(=O)C3CCNCC3)s2)o1
Host: nude mouse, HH xenograft
Dose: dose not given
| conditions | tumour volume |
| --- | --- |
| day 8 | 28.8 mm³ and 40.8 mm³ and 43.5 mm³ and 8.79 mm³ and 30.4 mm³ and 36.8 mm³ and 49.6 mm³ and 41.9 mm³ |
| day 2 | 26.3 mm³ and 36.9 mm³ and 30.1 mm³ and 28.3 mm³ and 30.8 mm³ and 37.5 mm³ and 19.4 mm³ and 31.9 mm³ |
| day 0 | 0 mm³ |
| day 15 | 231 mm³ and 57.3 mm³ and 22.6 mm³ and 49 mm³ and 244 mm³ and 38 mm³ and 164 mm³ and 174 mm³ |

Some of these lines once more (series 1):
| target | assay | scale | remaining activity |
| --- | --- | --- | --- |
| PAK1 (Homo sapiens, UniProt Q13153) | enzyme activity | relative to: untreated control | 76.1% |
| CLK1 (Homo sapiens, UniProt P49759) | enzyme activity | relative to: untreated control | 74.2% |
| GRK6 (Homo sapiens, UniProt P43250) | enzyme activity | relative to: untreated control | 98% |
| PRKG1 (Homo sapiens, UniProt Q13976) | enzyme activity | relative to: untreated control | 93.1% |
| Aurora kinase B (AURKB, Homo sapiens, UniProt Q96GD4) | enzyme activity | relative to: untreated control | 68.6% |
| RPS6KA2 (Homo sapiens, UniProt Q15349) | kinase activity, kinase panel profiling |  | 90.1% |
| PDPK1 (Homo sapiens, UniProt O15530) | enzyme activity | relative to: untreated control | 99.1% |
| WNK3 (Homo sapiens, UniProt Q9BYP7) | enzyme activity | relative to: untreated control | 87.3% |
